# Measurements gathered from unrelated publications.
# Protocols differ between the studies behind these lines. “And” joins repeats or separate records; there may be more than shown. ± marks the error that the study gave.
# dop: Pup deamidase/depupylase (dop, Mycolicibacterium smegmatis, UniProt A0QZ49)
# SLC6A2: Sodium-dependent noradrenaline transporter (SLC6A2, Homo sapiens, UniProt P23975)
# SLC6A3: Sodium-dependent dopamine transporter (SLC6A3, Homo sapiens, UniProt Q01959)
# PA: Polymerase acidic protein (PA, Influenza A virus, UniProt C3W5S0)
# rep main protease: Replicase polyprotein 1ab, main protease (rep, Severe acute respiratory syndrome coronavirus 2, UniProt P0DTD1)
# MAOA: Amine oxidase [flavin-containing] A (MAOA, Homo sapiens, UniProt P21397)
SMILES,target,test,system,setting,IC50
O=c1c2ccccc2[se]n1C12CC3CC(CC(C3)C1)C2,"fbpC (Mycobacterium tuberculosis, UniProt P9WQN9)","enzyme activity, inhibitor",,"15 min, room temperature, added: resorufin butyrate",25000 nM
N#C/C(=C\c1ccc(O)c(O)c1)C(=O)c1ccc(O)c(O)c1,dop,"enzyme activity, inhibitor",,"30 min preincubation, added: Pup-Glu(AMC) substrate, ATP 1 mM",130 ± 30 nM
CCN(CC)C(=O)[C@@H]1C=C2c3cccc4[nH]cc(c34)C[C@H]2N(C)C1,SLC6A2,"transporter uptake, inhibitor, radiometric",,,> 100000 nM
CCC(CC)O[C@@H]1C=C(C(=O)O)C[C@H](N)[C@H]1NC(C)=O,"Sialidase A (nanA, Streptococcus pneumoniae, UniProt P62575)","neuraminidase activity, inhibitor, chemiluminescence","Streptococcus pneumoniae, total protein of strains",,510 nM
CCNC(C)C(=O)c1ccc(Cl)cc1 (centres unmarked),SLC6A3,"transporter uptake, inhibitor, radiometric",,,931 nM
O=c1[nH]c(-c2ccc(-c3nnn[nH]3)cc2)c(Cc2cccc3ccccc23)cc1O,PA,"enzyme activity, inhibitor, fluorescence",,,12 nM
CCC1CC2CC3c4c(c5cc(O)ccc5n4CC)CCN(C2)C13 (centres unmarked),"Slc18a2 (Rattus norvegicus, UniProt Q01827)","[3H]5-HT uptake, inhibitor",rat brain synaptic vesicles,added: [3H]5-HT,54.3 ± 6.4 nM
CCCC(C(=O)c1ccc(O)c(O)c1)N1CCCC1 (centres unmarked),SLC6A2,"transporter uptake, inhibitor",,,24 nM
COC(=O)[C@H]1[C@@H](OC(=O)c2ccccc2)C[C@@H]2CC[C@H]1N2C,"Dopamine transporter (Schistosoma mansoni, UniProt E9LD23)",,,,29400 ± 3900 nM
C[C@@H]1C[C@H]2CC(=O)CC[C@@H]2[C@H]2CC[C@]3(C)[C@@H](O)CC[C@H]3[C@@H]21,"Androgen receptor (Ar, Rattus norvegicus, UniProt P15207)","ligand displacement, radioligand",,,17.6 nM
"C=CCN1CCC2(C)c3cc(O)ccc3CC1C2C (single isomer, unassigned; (+))","Tmem97 (Mus musculus, UniProt Q8VD00)","ligand displacement, radioligand",,"pH 8, cell membranes",20800 nM
Cc1c(C(=O)c2cccc3ccccc23)c2cccc3c2n1[C@H](CN1CCOCC1)CO3,"KCNK18 (Homo sapiens, UniProt Q7Z418)","ion flux, inhibitor",,,17800 nM
CCOC(=O)C=CC(CC1CCNC1=O)NC(=O)C(Cc1ccccc1)NC(=O)C(Cc1ccccc1)NC(=O)OC(C)(C)C (centres unmarked),rep main protease,"enzyme activity, inhibitor",,,2200 nM
CCC(C(=O)c1ccc2c(c1)OCO2)N(C)C (centres unmarked),SLC6A3,"transporter uptake, inhibitor, radiometric",,,302 nM
CNC(C)Cc1ccc(O)c(O)c1 (centres unmarked),SLC6A3,"transporter uptake, inhibitor, radiometric",,,9800 nM
CCCCC/C=C\C/C=C\C/C=C\C/C=C\CCCC(=O)OCCN,MAOA,"enzyme activity, inhibitor, fluorescence",,,38700 nM
CCC[C@@H](C(=O)c1ccc2c(c1)OCO2)N1CCCC1,"Transporter (Slc6a2, Rattus norvegicus, UniProt Q63380)","transporter uptake, inhibitor, radiometric",,,9.86 nM
COc1ccc2c3c([nH]c2c1)C(C)=NCC3,"SLC22A2 (Homo sapiens, UniProt O15244)","transporter uptake, inhibitor, fluorescence",,,500 nM and 497 nM and ~500 nM
CC(C(=O)c1ccc2c(c1)OCO2)N(C)C (centres unmarked),SLC6A3,"transporter uptake, inhibitor, radiometric",,,2220 nM
CCCCCc1cc(O)c2c(c1)OC(C)(C)c1ccc(C)cc1-2,"UGT1A9 (Homo sapiens, UniProt O60656)",inhibitor,"HEK293 overexpressing UGT1A9, recombinant UGT1A9 microsomes","pH 7.4, added: acetaminophen glucuronidation",590 ± 46 nM
CCCCC/C=C\C/C=C\C/C=C\C/C=C\CCCCOC(CO)CO,MAOA,"enzyme activity, inhibitor, fluorescence",,,> 100000 nM
N=C(N)NCCC[C@H](NC(=O)[C@H](Cc1ccccc1)NC(=O)[C@H](N)Cc1ccccc1)C(=O)CCl,rep main protease,"enzyme activity, inhibitor",,,100 nM
c1ccc(CCCN2CCN(CCOC(c3ccccc3)c3ccccc3)CC2)cc1,"Equilibrative nucleoside transporter 4 (Slc29a4, Mus musculus, UniProt Q8R139)",,,pH 7.4,62800 ± 4500 nM
CCCCC/C=C\C/C=C\C/C=C\C/C=C\CCCC(=O)OCCN,"GPR55 (Homo sapiens, UniProt Q9Y2T6)","β-arrestin2 recruitment, antagonist",U2OS HA-GPR55/βarr2-GFP,"40 min, added: LPI 3 µM",6570 nM
O=c1[nH]c(Cc2cccc3ccccc23)c(-c2ccc(-c3nnn[nH]3)cc2)cc1O,PA,"enzyme activity, inhibitor, fluorescence",,,15 nM
CCCC(C(=O)c1ccc2c(c1)OCO2)N1CCCC1 (centres unmarked),SLC6A2,"transporter uptake, inhibitor",,,18 nM
O=c1[nH]c(-c2ccc(-c3nnn[nH]3)cc2)c(Cc2ccc3ccccc3c2)cc1O,PA,"enzyme activity, inhibitor, fluorescence",,,81 nM
COc1cc(/C=C(\C#N)C(=O)c2ccc(O)c(O)c2)cc(I)c1O,dop,"enzyme activity, inhibitor",,"30 min preincubation, added: Pup-Glu(AMC) substrate, ATP 1 mM",520 ± 120 nM
O=c1[nH]c2ccccc2n1C1CCN(CCCC(c2ccc(F)cc2)c2ccc(F)cc2)CC1,"Voltage-dependent P/Q-type calcium channel subunit alpha-1A, with β4/α2δ1 (Homo sapiens, UniProt O00555)","calcium current, blocker, automated patch clamp",,"tonic block, holding -90 mV",> 30000 nM
CN=c1nc(-c2ccccc2)n(-c2ccccc2)s1,"4'-phosphopantetheinyl transferase PptT (Mycobacterium tuberculosis, UniProt O33336)","enzyme activity, inhibitor",,,800 nM
CCOC(=O)C=CC(CC1CCNC1=O)NC(=O)C(Cc1ccccc1)NC(=O)C(Cc1ccc(F)cc1)NC(=O)OC(C)(C)C (centres unmarked),rep main protease,"enzyme activity, inhibitor",,,1800 nM
COC(=O)[C@H]1[C@@H](c2ccc(Cl)cc2)C[C@H]2CC[C@H]1N2C,"Sodium-dependent noradrenaline transporter (Mus musculus, UniProt O55192)","transporter uptake, inhibitor, radiometric",,,2.04 nM

# Some of these lines once more:
SMILES,target,test,system,setting,IC50
COC(=O)[C@H]1[C@@H](OC(=O)c2ccccc2)C[C@@H]2CC[C@H]1N2C,"Dopamine transporter (Schistosoma mansoni, UniProt E9LD23)",,,,29400 ± 3900 nM
C[C@@H]1C[C@H]2CC(=O)CC[C@@H]2[C@H]2CC[C@]3(C)[C@@H](O)CC[C@H]3[C@@H]21,"Androgen receptor (Ar, Rattus norvegicus, UniProt P15207)","ligand displacement, radioligand",,,17.6 nM
"C=CCN1CCC2(C)c3cc(O)ccc3CC1C2C (single isomer, unassigned; (+))","Tmem97 (Mus musculus, UniProt Q8VD00)","ligand displacement, radioligand",,"pH 8, cell membranes",20800 nM
